Measured values collected from several papers.
Compare with care: the assays were run in different laboratories. ± marks the error that the study gave.

C=CC(=O)N1CCC[C@@H](n2nc(-c3ccc(Oc4ccccc4)cc3)c3c(N)ncnc32)C1 gave a Cmax of 413 ng/mL (Sprague-Dawley rat, male, plasma; oral, 55 mg/kg).
With CCC[C@@]1(CCc2ccccc2)CC(O)=C([C@H](CC)c2cccc(NS(=O)(=O)c3ccc(C(F)(F)F)cn3)c2)C(=O)O1 the Cmax was 1920 ± 98 ng/mL (Sprague Dawley rat, male, plasma; oral, 5 mg/kg, lipid-free formulation).
With CC(C)=CCC[C@](C)(O[C@@H]1O[C@H](CO[C@@H]2O[C@H](CO)[C@@H](O)[C@H](O)[C@H]2O)[C@@H](O)[C@H](O)[C@H]1O)[C@H]1CC[C@]2(C)[C@@H]1[C@H](O)C[C@@H]1[C@@]3(C)CC[C@H](O[C@@H]4O[C@H](CO)[C@@H](O)[C@H](O)[C@H]4O[C@@H]4O[C@H](CO)[C@@H](O)[C@H](O)[C@H]4O)C(C)(C)[C@@H]3CC[C@]12C the Cmax was 6900 ± 1910 ng/mL (Sprague Dawley rats, male, plasma; oral, 86 mg/kg, aqueous solution, with: co-dosed pure ginsenoside mixture).
The Cmax of CS(=O)(=O)c1ccc(-c2cnc(N)c(-c3ccc(C(F)(F)F)nc3)c2)cc1 is reported as 876 ng/mL (pregnant female Sprague-Dawley rat, plasma; oral, 3 mg/kg/day, gestation day 17).
The Cmax of Cc1nc2cccc(OCC(C)(C)C(=O)NC(C)C)c2c(N)c1C(=O)O is reported as 149 ng/mL (female Sprague-Dawley rat, plasma; dietary, 100 mg/kg/day, day 7).
CCCC[C@H](NC(C)=O)C(=O)N[C@H]1CCC(=O)NC[C@@H](C(=O)N[C@@H](Cc2c[nH]c3ccccc23)C(N)=O)NC(=O)[C@H](CCCNC(=N)N)NC(=O)[C@@H](Cc2ccccc2)NC(=O)[C@H](Cc2c[nH]cn2)NC1=O gave a Cmax of 695 ng/mL (CD Sprague-Dawley rat, female, plasma; subcutaneous, 1.0 mg/kg/day, day 28).
The Cmax of O=C(/C=C/c1ccc(O)c(O)c1)O[C@H](Cc1ccc(O)c(O)c1)C(=O)O is reported as 16.6 ± 5.77 ng/mL (UPLC-MS/MS; Wistar rat, microcirculation dysfunction model, plasma; oral, 100 mg/kg Salvia miltiorrhiza stem-leaf extract FT).
Cc1cc(C(=O)NC(C)(C)COc2cccc3c2C(N)=NS(=O)(=O)N3)cc(C)n1 gave a Cmax of 40 ng/mL (Sprague-Dawley rat, both sexes, plasma; oral, diet, 70 mg/kg, day 91, 13-week dietary study).
O=C(O)C[C@H](O)C[C@H](O)/C=C/c1c(C2CC2)nc2ccccc2c1-c1ccc(F)cc1 gave a Cmax of 1500 nM (male Sprague Dawley rat, control, plasma; oral, 2.5 mg/kg, geometric mean, with: silymarin 500 mg/kg oral).
O=C(O)/C=C/c1ccc(O)c(O)c1 has a Cmax of 4.69 ± 0.68 ng/mL (UPLC-MS/MS; Wistar rat, microcirculation dysfunction model, plasma; oral, 100 mg/kg Salvia miltiorrhiza stem-leaf extract FS).
The Cmax of CCN1CCN(c2ccc(Nc3cc(N(C)C(=O)Nc4c(Cl)c(OC)cc(OC)c4Cl)ncn3)cc2)CC1 is reported as 8.12 ng/mL (LC-MS/MS; juvenile male Crl:WI(Han) rats, plasma; oral gavage, 0.3 mg/kg/day, postnatal day 17).
The Cmax of CCc1cc2c(cc1N1CCC(N3CCOCC3)CC1)C(C)(C)c1[nH]c3cc(C#N)ccc3c1C2=O is reported as 111 ng/mL (moderate hepatic impairment patients, plasma, total; oral, 300 mg single dose, fed).
The Cmax of N#C[C@]1(CO)O[C@@H](n2cnc3c(=O)[nH]c(N)nc32)C[C@@H]1O is reported as 60.1 ± 16.1 ng/mL (male Sprague-Dawley rat, plasma; oral, 1 mg/kg, with: entecavir 1 mg/kg).
With CC(C)=CCC[C@](C)(O[C@@H]1O[C@H](CO)[C@@H](O)[C@H](O)[C@H]1O)[C@H]1CC[C@]2(C)[C@@H]1[C@H](O)C[C@@H]1[C@@]3(C)CC[C@H](O[C@@H]4O[C@H](CO)[C@@H](O)[C@H](O)[C@H]4O[C@@H]4O[C@H](CO)[C@@H](O)[C@H](O)[C@H]4O)C(C)(C)[C@@H]3CC[C@]12C the Cmax was 1080 ± 422 ng/mL (Sprague-Dawley rat, plasma; oral, 2000 mg/kg ginseng extract, diet with NUTRIOSE 5% for 2 weeks).
C=C(c1ccc(C(=O)O)cc1)c1cc2c(cc1C)C(C)(C)CCC2(C)C gave a Cmax of 8520 ng/mL (rat Sprague-Dawley male, plasma; oral, 100 mg/kg, sesame oil).
O=C(/C=C/c1ccc(O)c(O)c1/C=C/c1ccc(O)c(O)c1)O[C@H](Cc1ccc(O)c(O)c1)C(=O)O has a Cmax of 11.5 ± 4.39 ng/mL (UPLC-MS/MS; Wistar rat, microcirculation dysfunction model, plasma; oral, 100 mg/kg Salvia miltiorrhiza stem-leaf extract FS).
With O=C(NC[C@H]1CN(c2ccc(N3CCOCC3=O)cc2)C(=O)O1)c1ccc(Cl)s1 the Cmax was 310 ± 85.8 ng/mL (Sprague-Dawley rat, male, plasma; oral, 10 mg/kg).
CC(C)=CCC[C@](C)(O[C@@H]1O[C@H](CO[C@@H]2O[C@H](CO)[C@@H](O)[C@H](O)[C@H]2O)[C@@H](O)[C@H](O)[C@H]1O)[C@H]1CC[C@]2(C)[C@@H]1[C@H](O)C[C@@H]1[C@@]3(C)CC[C@H](O[C@@H]4O[C@H](CO)[C@@H](O)[C@H](O)[C@H]4O[C@@H]4O[C@H](CO)[C@@H](O)[C@H](O)[C@H]4O)C(C)(C)[C@@H]3CC[C@]12C has a Cmax of 658 ± 128 ng/mL (Sprague Dawley rats, plasma; oral, 100 mg/kg, control group sterile water).
The Cmax of CC(C)=CCC[C@](C)(O[C@@H]1O[C@H](CO)[C@@H](O)[C@H](O)[C@H]1O)[C@H]1CC[C@]2(C)[C@@H]1[C@H](O)C[C@@H]1[C@@]3(C)CC[C@H](O)C(C)(C)[C@@H]3[C@@H](O[C@@H]3O[C@H](CO)[C@@H](O)[C@H](O)[C@H]3O)C[C@]12C is reported as 500 ± 140 ng/mL (Sprague Dawley rats, male, plasma; oral, 25 mg/kg, aqueous solution, with: co-dosed pure ginsenoside mixture).
For O=C(O)Cc1ccccc1Nc1c(Cl)cccc1Cl, the Cmax was 2600 ± 1600 ng/mL (rat, plasma; oral, 10 mg/kg, with: sesamin 100 mg/kg).
C=CC(=O)Nc1cc(Nc2nccc(-c3cn(C)c4ccccc34)n2)c(OC)cc1N(C)CCN(C)C has a Cmax of 51.5 ± 10.7 ng/mL (Sprague-Dawley rat, male, plasma; oral, 10 mg/kg).
The Cmax of C[C@@H]1O[C@@H](OC[C@H]2O[C@@H](Oc3c(-c4ccc(O)c(O)c4)oc4cc(O)cc(O)c4c3=O)[C@H](O)[C@@H](O)[C@@H]2O)[C@H](O)[C@H](O)[C@H]1O is reported as 8.02 ± 4.4 ng/mL (UPLC-MS/MS; Wistar rat, microcirculation dysfunction model, plasma; oral, 100 mg/kg Salvia miltiorrhiza stem-leaf extract FT).
The Cmax of C=CC(N)CCC(=O)O (stereo not drawn) is reported as 1080 ± 75 ng/mL (male Sprague-Dawley rat, plasma; oral, 1.0 mg/kg, formulation 4, with: proline and tryptophan 100 mg/kg each).
The Cmax of Cn1nnc2c(C(N)=O)ncn2c1=O is reported as 600 ± 380 ng/mL (male athymic rat, intracranial U87 glioma, tumour extracellular fluid; oral, 50 mg/kg, uncorrected microdialysis, with: after cediranib).
The Cmax of O=C(/C=C/c1ccc(O)c2c1[C@H](C(=O)O)[C@@H](c1ccc(O)c(O)c1)O2)O[C@H](Cc1ccc(O)c(O)c1)C(=O)O is reported as 22.1 ± 7.33 ng/mL (UPLC-MS/MS; Wistar rat, microcirculation dysfunction model, plasma; oral, 100 mg/kg Salvia miltiorrhiza stem-leaf extract FS).
O=C(O)C[C@H](O)C[C@H](O)/C=C/c1c(C2CC2)nc2ccccc2c1-c1ccc(F)cc1 has a Cmax of 758 ± 317 ng/mL (male Sprague-Dawley rat (wild type), plasma; oral, 5 mg/kg).
Cc1cc(Nc2cc3ncccc3c(N[C@@H]3C[C@H]4CC[C@@H](C3)N4CCC#N)n2)n[nH]1 has a Cmax of 8.55 ng/mL (Sprague-Dawley rat, male, plasma; oral, 100 mg/kg/day, last day of 13 weeks).
CCN(CC)Cc1cc(Nc2ccnc3cc(Cl)ccc23)ccc1O has a Cmax of 1040 ± 122 ng/mL (rat, Wistar, male, plasma; oral, 60 mg/kg, with: myricetin 5 mg/kg iv).
Cc1nc(Nc2ncc(C(=O)Nc3c(C)cccc3Cl)s2)cc(N2CCN(CCO)CC2)n1 gave a Cmax of 440 ± 170 ng/mL (Sprague-Dawley rat, female, plasma; intraperitoneal, 5 mg/kg, with: rosiglitazone co-dosed).
With CC(C)=CCC[C@](C)(O[C@@H]1O[C@H](CO)[C@@H](O)[C@H](O)[C@H]1O)[C@H]1CC[C@]2(C)[C@@H]1[C@H](O)C[C@@H]1[C@@]3(C)CC[C@H](O)C(C)(C)[C@@H]3[C@@H](O[C@@H]3O[C@H](CO)[C@@H](O)[C@H](O)[C@H]3O[C@@H]3O[C@@H](C)[C@H](O)[C@@H](O)[C@H]3O)C[C@]12C the Cmax was 600 ± 160 ng/mL (Sprague Dawley rats, male, plasma; oral, 45 mg/kg, aqueous solution, with: co-dosed pure ginsenoside mixture).
